Measurements pooled from the literature.
Each line is one published result; not all experiments were run side by side. Numbers after ± are the reported error.

Molecule	test	system	setting	measurement	result
Cc1cc(C)c2c(c1)[C@@H](N(Cc1cc(C(F)(F)F)cc(C(F)(F)F)c1)c1nnn(C)n1)CCCN2C[C@H]1CC[C@H](C(=O)O)CC1		human, plasma	oral, 100 mg daily, 4 to 6 weeks after last dose	plasma concentration	50.9 ng/mL
TWPKHFDKHTFYSILKLGKH-OH (C-acid)		peptide, mouse plasma	37 °C	plasma stability time	≥ 20 min
OC[C@H]1O[C@@H](c2ccc(Cl)c(Cc3ccc(O[C@H]4CCOC4)cc3)c2)[C@H](O)[C@@H](O)[C@@H]1O	HPLC-MS/MS	healthy Chinese volunteers, fasting	oral, 10 mg tablet, 1.75 h	plasma concentration	158 ± 32.4 ng/mL
CS(=O)(=O)n1cc2c(n1)CN([C@H]1CO[C@H](c3cc(F)ccc3F)[C@@H](N)C1)C2		healthy Japanese men, fasted, plasma	oral, 100 mg single dose, 168 h	plasma concentration	54.5 nM
COc1cc2c(cc1OC)CN(CCc1ccc(NC(=O)c3cc(OC)c(OC)cc3NC(=O)c3cnc4ccccc4c3)cc1)CC2		patients, plasma	intravenous, 150 mg, 72 h post-dose, cycle 1, no vinorelbine	plasma concentration	43 ng/mL
NCCCC[C@@H]1NC(=O)[C@@H](Cc2c[nH]c3ccccc23)NC(=O)[C@H](c2ccccc2)NC(=O)[C@@H]2C[C@@H](OC(=O)NCCN)CN2C(=O)[C@H](Cc2ccccc2)NC(=O)[C@H](Cc2ccc(OCc3ccccc3)cc2)NC1=O	radioimmunoassay	healthy male volunteers, plasma	subcutaneous, 1 µg, below LLOQ	plasma concentration	< 0.03 ng/mL
CNC(=O)c1ccccc1Sc1ccc2c(/C=C/c3ccccn3)n[nH]c2c1		New Zealand White rabbits, plasma	suprachoroidal, 1 mg/eye, 6 h	plasma concentration	0.288 ng/mL
liraglutide	equilibrium dialysis	human plasma 50% diluted	10 nM, 4 to 5 h, pH 7.4, 37 °C, inner-outer ratio 50:1	plasma protein binding	98.8%

Repeated from above:
Molecule	test	system	setting	measurement	result
CNC(=O)c1ccccc1Sc1ccc2c(/C=C/c3ccccn3)n[nH]c2c1		New Zealand White rabbits, plasma	suprachoroidal, 1 mg/eye, 6 h	plasma concentration	0.288 ng/mL
